Measured values of several laboratories.
Compare with care: the assays were run in different laboratories. ± gives the spread as reported.

C[C@@H](O)[C@H]1C(=O)N2C(C(=O)O)=C(S[C@@H]3CN[C@H](C(=O)N(C)C)C3)[C@H](C)[C@H]12  AUC(0-last) (microdialysis; Danish Landrace pigs, cortical bone; intravenous, 1000 mg, 10 min infusion, with: vancomycin): 5330 ng·h/mL
NC(=O)c1cnc2[nH]ccc2c1N[C@@H]1[C@@H]2CC3C[C@H]1C[C@@](O)(C3)C2  AUC(0-last) (Japanese, normal hepatic function, plasma; oral, 150 mg single dose, mean): 1300 ng·h/mL
CS(=O)(=O)n1cc2c(n1)CN([C@H]1CO[C@H](c3cc(F)ccc3F)[C@@H](N)C1)C2  AUC(0-last) (healthy male human, plasma; oral, 12.5 mg, fasted single dose): 11.4 µM·h
CN[C@H](CC(C)C)C(=O)N[C@H]1C(=O)N[C@@H](CC(N)=O)C(=O)N[C@H]2C(=O)N[C@H]3C(=O)N[C@H](C(=O)N[C@H](C(=O)O)c4cc(O)cc(O)c4-c4cc3ccc4O)[C@H](O)c3ccc(c(Cl)c3)Oc3cc2cc(c3O[C@@H]2O[C@H](CO)[C@@H](O)[C@H](O)[C@H]2O[C@H]2C[C@](C)(N)[C@H](O)[C@H](C)O2)Oc2ccc(cc2Cl)[C@H]1O  AUC(0-last) (microdialysis; Danish Landrace pigs, cancellous bone; intravenous, 1000 mg, 100 min infusion, with: meropenem): 59900 ng·h/mL
COc1cccc(N2CCN(C3=Nc4c(F)cccc4[C@H](CC(=O)O)N3c3cc(C(F)(F)F)ccc3OC)CC2)c1  AUC(0-last) (UHPLC-MS/MS; healthy women, plasma; intravenous infusion, 960 mg single dose, 60 min infusion, HPβCD formulation): 250000 ± 59400 ng·h/mL
CCOCCn1c(C2CCN(CCc3ccc(C(C)(C)C(=O)O)cc3)CC2)nc2ccccc21  AUC(0-last) (human, mild renal insufficiency, plasma; oral, 20 mg): 937 ng·h/mL
CCOc1ccc(Cc2cc([C@@H]3S[C@H](CO)[C@@H](O)[C@H](O)[C@H]3O)c(OC)cc2C)cc1  AUC(0-last) (Japanese type 2 diabetes patients, plasma; oral, 5 mg single dose, eGFR ≥90 mL/min/1.73 m^2): 1990 ± 499 ng·h/mL
CCCC[C@H](NC(C)=O)C(=O)N[C@H]1CCC(=O)NC[C@@H](C(=O)N[C@@H](Cc2c[nH]c3ccccc23)C(N)=O)NC(=O)[C@H](CCCNC(=N)N)NC(=O)[C@@H](Cc2ccccc2)NC(=O)[C@H](Cc2c[nH]cn2)NC1=O  AUC(0-last) (beagle dog, male, plasma; subcutaneous, 8.0 mg/kg daily, day 28): 1070 ng·h/mL
C[C@]12C=CC(=O)C=C1CC[C@@H]1[C@@H]2[C@@H](O)C[C@@]2(C)[C@H]1C[C@H]1O[C@@H](C3CCCCC3)O[C@]12C(=O)CO  AUC(0-last) (children with asthma, serum; inhaled, 80 µg ciclesonide, day 7, HFA-MDI with spacer, steady state): 0.261 ± 0.019 ng·h/mL

Some of these lines once more:
COc1cccc(N2CCN(C3=Nc4c(F)cccc4[C@H](CC(=O)O)N3c3cc(C(F)(F)F)ccc3OC)CC2)c1  AUC(0-last) (UHPLC-MS/MS; healthy women, plasma; intravenous infusion, 960 mg single dose, 60 min infusion, HPβCD formulation): 250000 ± 59400 ng·h/mL
